# Assay results pooled from the literature.
# A part holds a random share of what one study measured.

# Series 1
# Target: Interferon regulatory factor 5, full length, phosphomimetic (IRF5, Homo sapiens, UniProt Q13568-2, residues 1-514, K96S/S451D/S453D/S456D/S462D)
# Method: protein-binding microarray
# Form: double-stranded DNA, one strand shown
# Medium: in vitro
# Concentration: 250 nM
# Notes: 60-bp whole probe
# With: salmon DNA 0.4 mg/ml
# Reference: random background probes
# Reading: higher = stronger binding
# Shared flanks, not repeated: GCCTAGCAC … GTCTTGATTCGCTTGACGCTGCTG
Sequence,log fluorescence [z-score]
GACGGTCTCCTTATCCTGTCGTGCTAG,-0.0513
TCAAGTTGTACTTTCTAACTGTGCTAG,0.925
TCAGTCCTCACTTCCTTACTGTGCTAG,0.318
GTAGGTCTCGGACTGGGTTAGTGCTAG,-0.564
TCAGTTTCCTCTTTCACACTGTGCTAG,2.95
TTAGGACTTGGGTTTCGGTTAGTGCTA,7.66
TTAGAACTGAGACTGGATAAGTGCTAG,-0.194
GACGATATCAGTCTCGACACGTGCTAG,1.37
TCATTTTTTTTTCCCTGACTGTGCTAG,0.973
CACGGTTTCGGTATCGGGACGTGCTAG,9.75
GTCGGTCTCCTACTGCTGACGTGCTAG,-0.103
GACTGTATCGGTTTCGGGACGTGCTAG,8.7
GACGGTTTCGGACTGCGGACGTGCTAG,4.28
CTCTGTCTGGGATGTAATTCCGTGCTA,-0.0659
TTTGGTATCCTTTTCCTTTAGTGCTAG,1.23
GACGAACTGCTTTTCCTGACGTGCTAG,0.211
AGAATTTCCACTTTGACTTAGTGCTAG,0.688
TTAGGTATCGGTTTCGGTTTGTGCTAG,10.3
TGTTTTTGCTTTCTTTATGTGTGCTAG,3.05
TTAGATACCAGACTGGATTAGTGCTAG,0.101
TTAGGTGTCCTTTTCCTTTAGTGCTAG,0.331
GACGGACTTGGTCTCGGGACGTGCTAG,-0.471

# Series 2
# Target: RNA binding protein fox-1 homolog 2, RRM domain, GST-SBP tag (RBFOX2, Homo sapiens, UniProt O43251-10, residues 100-194)
# Method: RNA Bind-n-Seq
# Form: RNA
# Medium: in vitro
# Concentration: 365 nM
# Notes: natural RNA segment, single round, ends assumed
# Reference: no-protein control
# Reading: higher = stronger binding
# Residues (chain): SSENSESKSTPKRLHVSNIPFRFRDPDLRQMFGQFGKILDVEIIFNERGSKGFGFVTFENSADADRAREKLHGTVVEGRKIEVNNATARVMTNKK
Sequence,RBNS enrichment (R)
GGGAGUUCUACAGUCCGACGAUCUGUACCUCCUCCCUUUGGUGACCUGAAGUCACUGUGACAGUUCUCCAGGAAGGAGGAGCUUCCUACUUUUGAGUUUCUCUGUGGAAAUAAAACAUGAAUCUUGUUUCCCUUGGAAUUCUCGGGUGCCAA,0.262
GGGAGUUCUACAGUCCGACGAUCGGGAUUUGUAGUAUCAGCUUGUUGAGCAAUGACUUUGAAUCUAGUUUUCAGUGAUCAGAAGCAGCAGUUAUUUGAGUGUAUGAAUGGAAUGAUGAUCACUGUGCUAUAAUUGGAAUUCUCGGGUGCCAA,7.95
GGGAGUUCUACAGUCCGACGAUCACAACGAUUUUCCCAAAUUUUGUACAAUCUGUCCUGGAAAGCAAACCCCUUUUAAAAUCUAAUGUCUGGGCUUUGAGUAUUAGCUCAUUUAGGGUGGACAAAUGCAUUACUGGAAUUCUCGGGUGCCAA,0.461
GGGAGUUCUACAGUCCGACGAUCCUAGCAAGGACUAAAGAAUUUUAUAUCAAAAUUCUCCAGGCAUGUACCAGUUCGGGUUAAUAAAAUGAUGCCACUUGUGUCUUUUGUUCUUAAGCAGGGAAGAUAAGAGAUGGAAUUCUCGGGUGCCAA,0.816
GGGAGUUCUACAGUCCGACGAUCUGCACUGAGGUAACAUCUAAAACAGAGAUGUGGUUCUUAAUGUUUAACAGAACAGUUCUAAUCCUGCCACGUGUUAUCAUUAUAGAUUUUAUAGUUGCCUUUCUAACUACUGGAAUUCUCGGGUGCCAA,0.301
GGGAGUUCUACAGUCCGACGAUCACUUGAAUAACGUCUUCUCUUUACUAUUACACACGAGGCAGCCUAUUAACCUGUGUCUUAGAAUUGUUGUAUAUAGUUCUUUUAAUAUCCAUAGGGUAUAUUUUUGAAUUUGGAAUUCUCGGGUGCCAA,0.554
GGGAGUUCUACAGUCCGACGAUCCAAAGGUUUUUCUCUCUCUCAUUCAUAUCCAUACUAACAAGCAUGGUGGCUGGUGCCUCUCCCUAGGAAAGCUUUGGCGUCAUUCAACUCAAGUGUUCUUGUUCUUGUUGUGGAAUUCUCGGGUGCCAA,0.579
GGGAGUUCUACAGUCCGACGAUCCAGUGUUUGAGCCAAAUCUCCGCAAUUGAGAGCAGUGCAAGUGCUGAGAGGAUGUAGACUGGGCUGGGGCGAGAACAUGUCACACUAGAUCCCAGUCCACGAUGAUGAGUUGGAAUUCUCGGGUGCCAA,0.42
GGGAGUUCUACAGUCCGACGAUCCCAGAAAGGGAGGGCCACCGCUUUGCCCCCUGCUUUUACCCUUCCUUCUGGGUGCUCUACACCUCAGGUUACCAGGCCUGAGGCAUCUCAGCCAAGCUUGUUUCCUGCUCUGGAAUUCUCGGGUGCCAA,0.512

# Series 3
# Target: RING finger protein unkempt homolog, zinc fingers 1-6, GST-SBP tag (UNK, Homo sapiens, UniProt Q9C0B0, residues 30-357)
# Method: RNA Bind-n-Seq
# Form: RNA
# Medium: in vitro
# Concentration: not given
# Notes: RNA with constant flanks, human-mouse chimeric sites, ends assumed
# Reference: input RNA pool
# Reading: higher = stronger binding
# Target sequence (chain): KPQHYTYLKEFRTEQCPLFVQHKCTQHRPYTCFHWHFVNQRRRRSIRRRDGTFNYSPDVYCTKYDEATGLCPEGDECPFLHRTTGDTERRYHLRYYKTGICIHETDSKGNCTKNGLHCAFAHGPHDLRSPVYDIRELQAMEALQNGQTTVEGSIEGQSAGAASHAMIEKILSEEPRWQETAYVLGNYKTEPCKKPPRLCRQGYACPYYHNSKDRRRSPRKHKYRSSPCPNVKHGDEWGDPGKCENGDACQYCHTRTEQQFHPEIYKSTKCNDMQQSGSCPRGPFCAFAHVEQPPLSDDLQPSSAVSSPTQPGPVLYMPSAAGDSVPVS
Sequence,bound/input enrichment [ratio]
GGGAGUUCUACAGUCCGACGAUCGGCUGCUACUAUUCUCCCUGGAGUGGCUGGAGUUCCCGCCGGAGCGCGCGCAGGUUAAUUUUAGAAAAUGCCAAGUAGGAAGUUUGUUGAGGGUGAAGUGGUCAGAGGCCGAUGGCCUGGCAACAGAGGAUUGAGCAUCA,3.51
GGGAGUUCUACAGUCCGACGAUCCGCUUGGAUGAGGCGGGUGUCACAGAUGAAGUGCUAGAUUCUGCCAUGCAAGCCUUCCUUCUGGAGGUCAUUGUUAAACAUGGGGAGCCAGCCCCUUAUUUAUGUAACAAAGAUCCGUUUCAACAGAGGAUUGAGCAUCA,0.133
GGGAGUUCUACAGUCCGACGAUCGGUGGGGUGGUCAUUGCCGUUUGAGCUCUGCUGAUUCUUAUGAAUCAUUCAAAACUCUCGUGUAGGGUUGACAAUGUGGGGGGGUGGGGGAUCCAGCUUAUUCUUUUAUUUUCAAGUCCACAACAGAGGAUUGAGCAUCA,0.678
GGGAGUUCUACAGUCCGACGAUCAAAGUGAUGACUAUGUUUGUCCAACGACAGGUAUUUUCUGAGAACAAAGAUGAGAUUGCGUUAGUCCUCUAUGGCACAGAUGGCACUGAUAAUGCCCUUGCUGGCAAGGACCAGUAUCAGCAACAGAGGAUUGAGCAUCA,0.0716
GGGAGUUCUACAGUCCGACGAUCUCAUUUUUCUCUUUUCUUUCUUUCCUUAAAAGCCUAACUAAAGAUUAGGUUGUAAGAAAAAUAGAAGCCAUGUUUCGAAGACCUGUGUUACAGGUAUUUCGUCAGUUUGUAAGACAUGAGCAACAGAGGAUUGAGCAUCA,0.191
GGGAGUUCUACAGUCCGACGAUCGAUAAGAAAAGCUUGUUGGAGACCCGCUUGCAUGUCACUGGUAGAGACCUGAGGUGUCAAAUAGCUGAAACCUUUGGACUUCAAGAAAAUUACAUCAAGAUCGUAAUAAAUAAGAAACAGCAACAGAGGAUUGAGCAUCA,0.257
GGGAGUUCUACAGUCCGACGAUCUCCUUGGAACCCAGUCAUAUAGGUGACCUGCAAAAAGCAGACACCAGUAGUCAAGGUGCUUUAGUGUUUCUCUCAAAGGACUACGAAAUAGAAAAUCAAAAUCCUCUGGCCUCUCCUACGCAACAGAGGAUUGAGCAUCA,2.62
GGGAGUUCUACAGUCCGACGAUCAAUUUCCUGUCAUACUUUUUAGACAUUGCCAUAGGUAUUACAGAGCACCUGGCCACAUUCUAGGUUUGUGUUAUUUCUCAGCUAUGGAUAUGAUCAAAUGAGAACACUGGCAGCCAGAUGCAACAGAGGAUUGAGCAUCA,2.33
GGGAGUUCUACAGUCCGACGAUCCUUAAUGUUAAUAUUUUUGAAUAAAUGAAGCUAAAAUUUUGCUUUCUGGUACAACACGCAUUAAUAAAAGGUUAAGUUUUGUUUUCCACUGAAGUACUAUUUAACAUACAUCUCAGAAACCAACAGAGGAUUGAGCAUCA,0.333
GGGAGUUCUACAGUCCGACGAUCCCCUCCCGGGCCACCCAACCCCUCCCGCUCCCAGCGGGAGAUCCAGGUUUCUUCUUAUUUCAUAGCAAAUAAGAAAAAUGUUCUACGCACAUUUUGUCCUCAGUAAACGAGGGCCUCUGGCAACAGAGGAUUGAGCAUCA,0.391
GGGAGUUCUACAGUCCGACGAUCGCACUUCUCAAAUACUGGCCAAAGACUCACAGUCCAAAAGAAGUAAUGUUCUUAAAUGAAUUAGAAGAGAUUUUAGAUGUAAUUGAACCAUCAGAGUUUGUGAAGAUCAUGGAGCCUCUUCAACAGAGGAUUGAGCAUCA,0.54

# Series 4
# Target: Fragile X messenger ribonucleoprotein 1, C-terminal low-complexity region (Fmr1, Mus musculus, UniProt P35922)
# Method: RNA Bind-n-Seq
# Form: RNA
# Medium: in vitro
# Concentration: 200 nM
# Notes: whole 134-nt RNA, ends assumed
# With: 150 mM LiCl
# Reference: input library
# Reading: higher = stronger binding
# All molecules: 7-deaza-guanosine replaces G
Sequence,log2 enrichment
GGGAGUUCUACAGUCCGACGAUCCAAGUCCUGUGCUACACAUCGUAUGUACCGAAUCGGGGUUUUGGUUUUGGUUUUGGAAAGUAUUAUGUUACGCCGUUCGGAUCUGCACUUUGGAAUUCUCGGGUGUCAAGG,-2.04
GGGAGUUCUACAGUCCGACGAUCCACAGACAACACGCACCCACACAGACACAGAGGGAAGGGGUUGGGAUGGAAACAGGGUGCACAGCAGGGCGGGGUAGGACCCCAGCCCCUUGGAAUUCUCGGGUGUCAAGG,0.37
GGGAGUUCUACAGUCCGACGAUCUCAAGUCCUGUGCUACACAUCGUAUGUACCGAAUCGGAAAGGAAAGGGGAAAGGGAAAGUAUUAUGUUACGCCGUUCGGAUCUGCACUUCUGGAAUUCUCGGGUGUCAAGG,-0.934
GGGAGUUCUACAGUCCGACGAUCUGUGCUACACAUCGUAUGUACCGAAUCGGGUUUUUUUGGGGUUUUUUUGGGGUUUUUUUGGGAAAGUAUUAUGUUACGCCGUUCGGAUCUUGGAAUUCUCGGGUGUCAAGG,1.44
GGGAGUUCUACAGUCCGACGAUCCCUCAAGUCCUGUGCUACACAUCGUAUGUACCGAAUCGGGUGGGGUGGGUGGAAAGUAUUAUGUUACGCCGUUCGGAUCUGCACUUCCAGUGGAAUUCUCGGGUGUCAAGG,-0.57
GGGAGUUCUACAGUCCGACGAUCGUCCUGUGCUACACAUCGUAUGUACCGAAUCGGGGAAAAAGGAAAAAGGGGAAAAAGGGAAAGUAUUAUGUUACGCCGUUCGGAUCUGCAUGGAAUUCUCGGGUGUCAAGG,0.521
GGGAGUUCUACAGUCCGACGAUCUAACUUUAGAGGAGGAUCUGAUGGAUAUGGCAGUGGACGUGGAUUUGGGGAUGGCUAUAAUGGGUAUGGAGGAGGACCUGGAGGUGGGAAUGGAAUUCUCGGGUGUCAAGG,1
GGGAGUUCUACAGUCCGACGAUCUCAAGUCCUGUGCUACACAUCGUAUGUACCGAAUCGGAGGAAAGGAAAAAAAGGAAAGUAUUAUGUUACGCCGUUCGGAUCUGCACUUCCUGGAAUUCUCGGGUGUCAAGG,-0.867

# A few entries again (series 4):
Sequence,log2 enrichment
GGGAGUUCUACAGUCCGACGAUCUCAAGUCCUGUGCUACACAUCGUAUGUACCGAAUCGGAAAGGAAAGGGGAAAGGGAAAGUAUUAUGUUACGCCGUUCGGAUCUGCACUUCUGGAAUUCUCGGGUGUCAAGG,-0.934
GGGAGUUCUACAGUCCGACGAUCUGUGCUACACAUCGUAUGUACCGAAUCGGGUUUUUUUGGGGUUUUUUUGGGGUUUUUUUGGGAAAGUAUUAUGUUACGCCGUUCGGAUCUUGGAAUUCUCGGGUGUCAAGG,1.44
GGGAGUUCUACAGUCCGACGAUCCCUCAAGUCCUGUGCUACACAUCGUAUGUACCGAAUCGGGUGGGGUGGGUGGAAAGUAUUAUGUUACGCCGUUCGGAUCUGCACUUCCAGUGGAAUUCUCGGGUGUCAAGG,-0.57
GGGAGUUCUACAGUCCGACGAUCGUCCUGUGCUACACAUCGUAUGUACCGAAUCGGGGAAAAAGGAAAAAGGGGAAAAAGGGAAAGUAUUAUGUUACGCCGUUCGGAUCUGCAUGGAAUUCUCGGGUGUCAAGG,0.521
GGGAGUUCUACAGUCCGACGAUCUAACUUUAGAGGAGGAUCUGAUGGAUAUGGCAGUGGACGUGGAUUUGGGGAUGGCUAUAAUGGGUAUGGAGGAGGACCUGGAGGUGGGAAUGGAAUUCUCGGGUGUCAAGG,1
